Experimental data pooled from the literature.
Every numbered part comes from another study and shows a few of its results, in no order. Substitutions count along the parent as printed.

Sample 1 — method: RNA Bind-n-Seq; form: RNA; sample: in vitro; tested at: 365 nM; relative to: no-protein control; reading: higher = stronger binding; endpoint: RBNS enrichment (R)
Target: RNA binding protein fox-1 homolog 2, RRM domain, GST-SBP tag (RBFOX2, Homo sapiens, UniProt O43251-10, residues 100-194)
Notes: natural RNA segment, single round, ends assumed
Residues (chain): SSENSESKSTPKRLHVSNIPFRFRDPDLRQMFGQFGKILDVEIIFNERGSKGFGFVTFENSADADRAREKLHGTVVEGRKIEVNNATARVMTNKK
Sequence = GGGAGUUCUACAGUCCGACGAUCAGCUAUCUUGAGUGAAAGUCCUCACUGACGAGUAUGCAAACCAAAUAGCCUCCUGCACAGUAGCCUCUCCUUCCUGUCACCAAAACAGUUUUAGGUCUGCUGAAGUCUGGUGGAAUUCUCGGGUGCCAA; value = 0.372
Sequence = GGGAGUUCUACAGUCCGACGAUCAAAUGCUAUUGGCAGGGAAUAAUAAUAAAAAAAAAAGAAAAUCAUUCUGUUUCCUGCAGUGGGAACUGGCCAUGUAGUCUUAACAGUCUUUUGUACAAAUAUCUACAAAGUGGAAUUCUCGGGUGCCAA; value = 0.516
Sequence = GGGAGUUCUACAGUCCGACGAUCAAAACUAGGGUGGUUUGCAGGUAUCCAAAAAUAUGCUAUGACAGAACAAAAUUGUGGUAUUCAUGACCCAUUUAAUUUACUGAAAAAUCAUAACUGCUGUCCUGCCUGCUUGGAAUUCUCGGGUGCCAA; value = 0.283
Sequence = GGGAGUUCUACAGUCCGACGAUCCCCAUGAGUGCAACGACCAAGGUGAAGGACAGCCAGACAGGAAAGGUGACAAAAGCCACCCUGAGUGAUACUAGGCUGCCUGAACCUUUGGGUGGGAGUGGAAGUCCCUAUGGAAUUCUCGGGUGCCAA; value = 0.352
Sequence = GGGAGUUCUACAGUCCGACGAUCUUGCCAGGAUAAAAAUGUGGCCACCGCUAGAUUUCUCUUACCUACCCGUUGCAACUGGUCCCAGACCAGAAUGGCCUCCUCAGAAGGGGAGGUGCUCUUCAAAUCUCCCUUGGAAUUCUCGGGUGCCAA; value = 0.262
Sequence = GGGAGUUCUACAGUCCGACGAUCGGAUUGCACAUUUUCUCUAUGAUGUUUGCAACAGAGAAAUUUUCAUUUUAAUGAUACUCUUCCUUUCUUGAAAGUUACAUGUCCUCAUUUCUGUUUCUGCUUCUCCCUUGUGGAAUUCUCGGGUGCCAA; value = 0.881
Sequence = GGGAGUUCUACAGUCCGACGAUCGACAUUGGCAUUCAAAUGUCUAUAUCUUGUUACUUACAAAAUAAAAAACAGAUUAAUUAGUGGCUUUAAAUUGUAGUUAUAUCAGUGUAUAUACACGAGGGGAACUGUAUUGGAAUUCUCGGGUGCCAA; value = 0.343
Sequence = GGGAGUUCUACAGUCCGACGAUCUAGUCCAUUGGCAAGCUUUAUCAAUAGCUUAAUGGCAGAGGAUAAAGGCUCAAACAGAUGAUGUUUUUUCCACAGAAAAACAAAUUGUUGAAUCUAUUCCGUGCAUAUUUUGGAAUUCUCGGGUGCCAA; value = 0.422

Sample 2 — target: CCND1, cyclin fold, Cln2 fusion (human); method: yeast growth competition, sequencing; sample: yeast; notes: weak parent motif; relative to: not given; reading: higher = stronger binding; endpoint: normalised enrichment score
Starting sequence: SLBP docking peptide (human); ARYKRKLLINDFG; partner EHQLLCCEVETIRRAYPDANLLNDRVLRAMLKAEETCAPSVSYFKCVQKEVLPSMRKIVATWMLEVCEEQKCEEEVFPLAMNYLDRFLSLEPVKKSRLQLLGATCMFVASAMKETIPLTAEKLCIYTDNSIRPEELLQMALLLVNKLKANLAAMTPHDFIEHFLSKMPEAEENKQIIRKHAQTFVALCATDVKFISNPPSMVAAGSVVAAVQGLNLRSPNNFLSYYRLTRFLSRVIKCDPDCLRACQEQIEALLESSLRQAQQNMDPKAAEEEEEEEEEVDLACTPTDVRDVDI
Variant = ALYKRKLLINDFG [R2L]; value = -0.0789
Variant = ARYKRKLLINDLG [F12L]; value = 0.236
Variant = ARYKRKLLINDFV [G13V]; value = 0.577
Variant = ACYKRKLLINDFG [R2C]; value = -0.0294
Variant = ARYKRKLLINDNG [F12N]; value = -0.225
Variant = ARYKRKLLVNDFG [I9V]; value = -0.217
Variant = DRYKRKLLINDFG [A1D]; value = 0.366
Variant = TRYKRKLLINDFG [A1T]; value = 0.415
Variant = ARYKRKLLCNDFG [I9C]; value = 0.228
Variant = ANYKRKLLINDFG [R2N]; value = 0.0906
Variant = ARYKRYLLINDFG [K6Y]; value = 0.142
Variant = ARYHRKLLINDFG [K4H]; value = 0.399
Variant = ARYKRKLLNNDFG [I9N]; value = 0.136
Variant = ARYKRKLLINWFG [D11W]; value = 0.328
Variant = ARYKRKLLRNDFG [I9R]; value = -0.151
Variant = ARYKRKILINDFG [L7I]; value = -0.847
Variant = ARYKRILLINDFG [K6I]; value = 0.0919
Variant = ARYKRKLLIHDFG [N10H]; value = -0.101
Variant = ARYKWKLLINDFG [R5W]; value = -0.488

Sample 3 — method: RNA Bind-n-Seq; form: RNA; sample: in vitro; tested at: not given; relative to: input RNA pool; reading: higher = stronger binding; endpoint: bound/input enrichment
Target: RING finger protein unkempt homolog, zinc fingers 1-6, GST-SBP tag (UNK, Homo sapiens, UniProt Q9C0B0, residues 30-357)
Notes: RNA with constant flanks, human and mouse sites, ends assumed
Construct (chain): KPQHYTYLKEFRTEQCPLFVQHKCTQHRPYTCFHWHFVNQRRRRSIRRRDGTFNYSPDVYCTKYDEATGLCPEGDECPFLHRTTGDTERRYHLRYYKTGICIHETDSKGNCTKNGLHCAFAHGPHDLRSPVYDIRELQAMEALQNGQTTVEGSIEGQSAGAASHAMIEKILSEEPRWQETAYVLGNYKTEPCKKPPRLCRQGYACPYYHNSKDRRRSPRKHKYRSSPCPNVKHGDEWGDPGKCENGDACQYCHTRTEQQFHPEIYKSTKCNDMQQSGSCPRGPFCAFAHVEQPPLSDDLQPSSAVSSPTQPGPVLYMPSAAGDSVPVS
Sequence = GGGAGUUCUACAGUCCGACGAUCAUACAUUCUAAGGGAGCACAUGGUGAAGGUAAUUCAGUGUCAUUGGAUUUUCAGAAUUCCUUAGUGUCCAAACCAGACCCACCUCCAUCUCAGAAUAAGCCAGCAACUUUCAGACCACCACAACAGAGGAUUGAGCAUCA; value = 0.474 ratio
Sequence = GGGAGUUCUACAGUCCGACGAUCGGGAGGCGUCCUGGGUGGAGGCAGUUCCAACCAGCAGCAGCAAAUACAGCUGCAGCAGUUACAGAUGGAGAAGGAGAGACUGCGGUUGAAACAACAGGAAUUAUUUCGGCAGGAAUUAGCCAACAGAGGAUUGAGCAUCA; value = 0.568 ratio
Sequence = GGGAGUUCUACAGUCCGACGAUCCUGAAGACCCAUAUCAGGCUGGGUGACGAUGCUCAGGAAACAAAGGUUUUACUGGAAAAACACAGAAAAUUUGUCGAUGUUGCCCAGAGUACUUACGACUAUGGCAGACAGCUGCUGCAGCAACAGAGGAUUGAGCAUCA; value = 0.31 ratio
Sequence = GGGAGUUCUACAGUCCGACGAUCCUUCGGGUUUCUGAGACUGUGGCAUUCACUGACGUGAAUUCAAUCCUGCGCUACCUGGCUAGAAUUGCAACUACGUCUGGGCUGUAUGGGACUAACCUGAUGGAGCACACUGAGAUUGAUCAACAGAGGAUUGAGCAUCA; value = 1.02 ratio
Sequence = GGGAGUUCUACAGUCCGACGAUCUUGCUCUCUGAAGUAGACUAGACUGUGCUGUCCAUGAGGAAUGGGUGUGCAUGUGCUUGUCCUAGUGCGUCCCGCUUCUGCAUCGCAGCUGCAGGCCUCCCUCUGGCGGCUGUGUCGCCACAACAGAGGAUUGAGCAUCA; value = 0.0795 ratio
Sequence = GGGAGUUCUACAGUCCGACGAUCGGGUGUUUGUGACCACUGCUUUCAGAGAUUCUUACCAUGUAUUCUGUUUUACAAUGUUUUCAUAGACUGUUAUGCCAGAAGUUUCCGAUGAUCAAUGUAAUAACCUGUUUUAACUGCCUACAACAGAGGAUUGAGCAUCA; value = 0.36 ratio

Sample 4 — method: EMSA with sequencing; form: double-stranded DNA, one strand shown; sample: in vitro; tested at: 10 and 20 nM; relative to: negative control set to 0; reading: higher = stronger binding; endpoint: normalised bound fraction
Target: Hepatocyte nuclear factor 3-alpha (Foxa1, Mus musculus, UniProt P35582, residues 1-468, full length assumed)
Sequence of UniProt P35582 (whole entry, looked up): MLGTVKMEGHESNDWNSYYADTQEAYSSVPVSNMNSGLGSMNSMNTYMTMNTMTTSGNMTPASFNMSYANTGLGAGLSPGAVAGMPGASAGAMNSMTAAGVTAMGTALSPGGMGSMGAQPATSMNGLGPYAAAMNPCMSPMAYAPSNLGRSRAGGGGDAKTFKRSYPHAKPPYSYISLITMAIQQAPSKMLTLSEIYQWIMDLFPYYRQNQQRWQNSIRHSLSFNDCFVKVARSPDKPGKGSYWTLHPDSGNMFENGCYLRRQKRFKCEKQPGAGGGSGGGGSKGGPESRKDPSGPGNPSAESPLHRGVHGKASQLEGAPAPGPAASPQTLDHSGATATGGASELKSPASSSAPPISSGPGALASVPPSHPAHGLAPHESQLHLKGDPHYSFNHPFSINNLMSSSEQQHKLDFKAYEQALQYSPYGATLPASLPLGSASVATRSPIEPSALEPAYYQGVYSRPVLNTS
Notes: whole designed probe, mean of two concentrations, ends assumed
Sequence = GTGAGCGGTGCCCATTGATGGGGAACTTTCTTTAAAGTCCATTAACTTTACTTAAGAATACATCCTGGTATTGGTCATTCTTGATATTCTCAGGTACACAGTGTATTTATTTATTTATTTATTTACTTTTGAGATGAAGTCTCGCTCTGTCACCCAGGCTGGAGTGCAGTGGCACGATCTTGGCTCACTGCAACCTCCACCTCCTGGGTTCAAACAATTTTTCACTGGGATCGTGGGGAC; value = 0.536 ratio
Sequence = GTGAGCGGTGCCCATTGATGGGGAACGGACACAGCCAGAGGCCATGAGTGCTCAGGAGTGCCATAAACTGTGATTTTGAGACTGATAACTGGGTGTGTCGGCCAGGCTAAATAGCTTGTTGTTTGCCTTTTTATATTTGAGGCCTATAAAAAAATAGTGAGAAAATAGCAAGATGCCCAGGAGACAGGTGATCTGATTCAGCCAGGGGGTGGGAGGTGGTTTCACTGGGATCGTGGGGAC; value = 0.0486 ratio
Sequence = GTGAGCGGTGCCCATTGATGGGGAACGGCCTTTCAATATGCTATAGTGTCTATCAGTTTCTTTTAGGCTTATTCTATCACAATTTTCATTCTCTATTAATCCCCTAAGTGTCTCTATAAGTAAATAACTAGATTATTTGGAAAGTTGCTGTTTAAAGAACTACTTGTAAGTTCAAGTGGCCTTTGGAGTGTGAATAAGTACCCATAATTCATCTATGATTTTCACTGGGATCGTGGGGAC; value = 0.243 ratio
Sequence = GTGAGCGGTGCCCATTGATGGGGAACCTCCTGACCTGGGACCCCACAGAGCTGGGCCTGTCATCACATTTATGGGGCTGCAGCTGACCTGGGAACTCCCTTCCTCAGTCAGTCCACAAATATTTACCCAGAGCCTCAGGGTGCTCAGTGACCTTTACAAAACAAAGTGCAGAGTCACGTGCCAGGGCACAGCAATCCCGGGCAAAACAGACCGAAACCCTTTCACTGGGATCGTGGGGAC; value = 0.144 ratio
Sequence = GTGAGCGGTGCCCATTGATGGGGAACACAGCCCCAGCTGACCTGGGGAAGTGCATGTCAGCATCCTGCTTCATTAGGACACCTCCAAGCCCAGCTTAGACCTGGATTCCAGGTGACCCCCTGTTTACTCTGAGCCCAGACAGAGGACAGAGAAGTGTGCAAGGGTGGGGACCCTCATCACAGCCCTTGACTCTGTAAGGCATATGGGTTTGTGCACGTGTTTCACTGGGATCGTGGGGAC; value = 0.114 ratio

Repeated from above (sample 2):
Variant = ARYKRKLLINDNG [F12N]; value = -0.225
Variant = ARYKRKLLVNDFG [I9V]; value = -0.217
